{"data": "Published values of several laboratories", "note": "Each line is one published result; not all experiments were run side by side. Values joined by “and” are separate records of one study, mostly repeats; a detail may differ. Numbers after ± are the reported error."}
{"Compound": "COc1ccc(NC(=O)N2CCCN3CCC(c4ccc(C#CC5CCCC5)cc4)C3C2)cc1 (centres unmarked)", "assay": "equilibrium dialysis", "test system": "CD-1 mouse plasma", "setting": "2 µM", "unbound fraction": 0.002}
{"Compound": "O=C(O)C(O)Cc1ccc(O)c(OS(=O)(=O)O)c1 (centres unmarked)", "assay": "ultrafiltration", "test system": "rat plasma", "unbound fraction": 0.32}
{"Compound": "COc1ccc(-c2csc(N/N=C(\\C)c3cc(O)cc(O)c3)n2)cc1", "assay": "equilibrium dialysis", "test system": "human plasma, male", "setting": "3 µM, 5 h, pH 7.4", "unbound fraction": "0% and 0.1% and 0.04% and 0.59%"}
{"Compound": "O=C(N[C@@H](Cc1ccc(OCCCCC2CCNCC2)cc1)C(=O)O)c1nc2ccccc2o1.O=C(O)C(F)(F)F", "assay": "rapid equilibrium dialysis", "test system": "human platelet-free plasma", "setting": "2 µM, 24 h, 37 °C", "unbound fraction": "0.95 ± 0.21%"}
{"Compound": "COc1ccc(NC(=O)N2CCCN3CCC(c4ccc(C#CC5CCCCC5)cc4)C3C2)cc1 (centres unmarked)", "assay": "equilibrium dialysis", "test system": "CD-1 mouse plasma", "setting": "2 µM", "unbound fraction": "< 0.0001"}
{"Compound": "Nc1ccc(-c2ccc(F)cc2)cc1NC(=O)N1CC2(COC2)C1", "test system": "brain tissue", "unbound fraction": 0.22}
{"Compound": "COc1cc(CC(O)C(=O)O)ccc1O (centres unmarked)", "assay": "ultrafiltration", "test system": "rat plasma", "unbound fraction": 0.83}
{"Compound": "CN1C(=O)[C@@H](Cc2ccc(O)c(I)c2)NC(=O)CNC(=O)[C@H](Cc2ccc3ccccc3c2)NC(=O)[C@H](CCCNC(=N)N)NC(=O)[C@H]1CCCNC(=O)c1ccc(CNC(=O)CN2CCN(CC(=O)O)CCN(CC(=O)O)CCN(CC(=O)O)CC2)cc1 [lutetium-177 labelled]", "assay": "ultrafiltration", "test system": "human plasma", "unbound fraction": "< 0.04"}
{"Compound": "Cc1ccc(N2C(=O)c3ccccc3NC23C(=O)N(C)c2ccc(Br)cc23)cc1 (centres unmarked)", "test system": "human plasma", "unbound fraction": "0.043 ± 0.005"}
{"Compound": "O=C(c1ccccc1)c1cc(O)c(-c2cc(Cl)cc(Cl)c2)c(O)c1", "assay": "equilibrium dialysis", "test system": "rat plasma", "setting": "2 µg/mL, pH 7.4, 37 °C", "unbound fraction": 0.0016}
{"Compound": "Nc1ccc(-c2ccc(F)cc2)cc1NC(=O)N1CCOCC1", "test system": "brain tissue", "unbound fraction": 0.21}
{"Compound": "C=C(C)C(=O)Nc1ccc(-c2c(-c3ccc(Oc4nccc(C)n4)cc3)c3c(N)ncnc3n2C)cc1", "test system": "mouse plasma", "setting": "5 µM, 18 h", "unbound fraction": 0.0096}
{"Compound": "Cc1cnc(Nc2cc(C)c(C)c(C)c2)nc1Nc1ccc2oc(=O)[nH]c2c1", "test system": "rat plasma", "unbound fraction": "0.24%"}
{"Compound": "CC(C)C[C@@H]1NC(=O)CNC(=O)[C@H](CC(N)=O)NC(=O)[C@H](CCCNC(=N)N)NC(=O)[C@H]([C@@H](C)O)NC(=O)[C@@H]2CSSC[C@@H]3NC(=O)[C@H]([C@@H](C)O)NC(=O)CNC(=O)CNC(=O)[C@H](C(C)C)NC(=O)[C@@H]4CSSC[C@H](NC(=O)[C@H]([C@@H](C)O)NC(=O)[C@H](CSSC[C@H](NC(=O)[C@H](C(C)C)NC(=O)[C@@H]5CCCN5C1=O)C(=O)NCC(=O)N[C@@H](CCC(=O)O)C(=O)N[C@@H]([C@@H](C)O)C(=O)N4)NC(=O)CNC(=O)[C@@H]1CCCN1C(=O)[C@H]([C@@H](C)O)NC(=O)[C@H](CC(N)=O)NC3=O)C(=O)N[C@@H](CO)C(=O)N[C@@H](Cc1c[nH]c3ccccc13)C(=O)N1CCC[C@H]1C(=O)N[C@@H](C(C)C)C(=O)N2", "assay": "equilibrium dialysis", "test system": "rat brain homogenate", "setting": "1 µM, 24 h, 37 °C", "unbound fraction": "0.13 ± 0.08"}
{"Compound": "Cc1ccc(NC(=O)N2CCCN3CCC(c4ccc(C#CC5(O)CCCCC5)cc4)C3C2)cc1 (centres unmarked)", "assay": "equilibrium dialysis", "test system": "CD-1 mouse plasma", "setting": "2 µM", "unbound fraction": 0.0019}
{"Compound": "CC(C)Cn1c(SCC(=O)N2CCc3ccccc3C2)nc2cc(Cl)ccc2c1=O", "assay": "equilibrium dialysis", "test system": "rat brain homogenate", "unbound fraction": "0%"}
{"Compound": "CCn1cc(-c2ccnc(Nc3ccc(N4CCNCC4)cc3)n2)c(-c2cccnc2)n1", "test system": "human plasma", "setting": "10 µM", "unbound fraction": 0.342}
{"note": "For quick reference, copied from above:"}
{"Compound": "COc1ccc(NC(=O)N2CCCN3CCC(c4ccc(C#CC5CCCC5)cc4)C3C2)cc1 (centres unmarked)", "assay": "equilibrium dialysis", "test system": "CD-1 mouse plasma", "setting": "2 µM", "unbound fraction": 0.002}
